Assay results collected from several papers.
Parts stem from different laboratories: compare values within a part only. Positions count from the first letter of the parent shown.

Sample 1 — target: XBP1, bZIP domain (human); technique: DHFR protein complementation; sample: yeast; relative to: wild-type JUN-FOS pair; direction: higher = stronger binding
Notes: single substitutions, most at no-binding floor
Starting sequence: JUN, bZIP domain (human); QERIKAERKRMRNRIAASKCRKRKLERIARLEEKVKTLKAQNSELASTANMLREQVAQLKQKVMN; partner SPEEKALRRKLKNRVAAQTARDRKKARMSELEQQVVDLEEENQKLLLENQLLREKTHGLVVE
Substitution | binding fitness
M51S | -0.798 natural log
R30F | -0.275 natural log
A49P | -1.43 natural log
A46G | -1.39 natural log
T37D | -0.663 natural log
E33P | -1.46 natural log
V35T | -1.53 natural log
V56Y | -0.507 natural log
L45E | -1.48 natural log

Sample 2 — technique: RNA Bind-n-Seq; form: RNA; sample: in vitro; tested at: 365 nM; relative to: no-protein control; direction: higher = stronger binding
Target: RNA binding protein fox-1 homolog 2, RRM domain, GST-SBP tag (RBFOX2, Homo sapiens, UniProt O43251-10, residues 100-194)
Notes: natural RNA segment, single round, ends assumed
All sequences stand within: GGGAGUUCUACAGUCCGACGAUC … UGGAAUUCUCGGGUGCCAA
Construct (chain): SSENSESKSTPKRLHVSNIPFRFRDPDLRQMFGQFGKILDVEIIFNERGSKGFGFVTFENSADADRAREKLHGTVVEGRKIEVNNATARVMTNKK
Oligonucleotide | RBNS enrichment (R)
GCUUCUUUGUGUGUCACCUUGCUUCCACGUUUCAGUUCUUGUUUUGUUUCUACUGCUUUAGUUUUUUUUAAAGUUCUCCAGUGUCCCCAAGAGGUAUUAGAAUCUUGCUG | 1.72
UCAUUAGAAUUGAAUUCAGUUUCUCUUAGAAUAUAAUCAGGUAUAAACCUAAGUUAAACUUUUUCCCAAACAAGGAGCAUCCAAAGACACAGUGACUUGAGCUAUAGAUA | 0.582
UCACUGCCAGUUGGGGCCUAGGCUUAGUCCUGGGCAAAUGUCCAUGAUCUUGCUGCUGUAGGAAGCUUGAUAGGGCAUUUGGCUCAAAUUUCAGAAGGCCUCGCUCCUGA | 0.481
UCUGAAAUGUGAAAAGCCUGCACUCUUCCUGUGGGCUGCGCAGUGGGCUCGGGGGUUGGGGGGUGCCGGGGCGAUGCUUCCACCCUGGACUGAGUGUUCGGGGCAGCCUG | 0.576
CCCAUUCCUGCUGCAUCCUGCCUGUGCCCCACAGCAAGCUUUCCACCCCCCAGGGAGGACCCAGCCCUGGCUUUGGGGCUAUUCUGCAGGGUUGUCUAGAGGAGUGGGGA | 0.557
AGGUUAUUCUAAACUUUCUUUGUAACUAUUGUUAUAGACAAUGGUUUCCAAACCAGUGGUUUCUAUGUAGCUUUUCUAGUUCCUUGCUAUCUUCUCACCACUGGCUUGAG | 0.325
GGAGAACAAAUCUCUCAGACAAAUGACUUGUACUAAAUUUGGCUUUGGUUUCCAAGCCAAGGGAAAAGCUGAAGACAUGAGUAAUGAUCUUGCUUCAUGAGAUUGUACCU | 0.28
UAUGUGAAUAACUUGACUUGCAUUGAUCUUUUUACAUAUUUAAUAAAAAAAAAAGUAUAUGUUAAAAUCUGCCUGGAGUUACAGAUUCUUAAAUUUUUAUGCUGAAGCUU | 2.68

Sample 3 — target: CCNA2, cyclin fold, Cln2 fusion (human); technique: yeast growth competition, sequencing; sample: yeast; notes: strong parent motif; relative to: not given; direction: higher = stronger binding
Starting sequence: GMNC docking peptide (human); KNAKRNLSSEFAN; partner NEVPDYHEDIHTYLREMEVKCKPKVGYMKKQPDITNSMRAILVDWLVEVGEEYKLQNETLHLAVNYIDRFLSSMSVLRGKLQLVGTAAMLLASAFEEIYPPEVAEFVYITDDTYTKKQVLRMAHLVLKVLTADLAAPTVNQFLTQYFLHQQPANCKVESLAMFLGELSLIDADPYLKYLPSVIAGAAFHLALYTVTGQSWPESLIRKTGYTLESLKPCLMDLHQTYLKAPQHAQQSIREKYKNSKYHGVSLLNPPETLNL
Substitution | normalised enrichment score
KNAWRNLSSEFAN [K4W] | 2.54
KAAKRNLSSEFAN [N2A] | 4.65
KNAKRNLASEFAN [S8A] | 5.18
KNAKRNLSSEFCN [A12C] | 4.82
KEAKRNLSSEFAN [N2E] | 3.81
KNTKRNLSSEFAN [A3T] | 4.46
KNAKRNYSSEFAN [L7Y] | 0.446
KNAKRNLSSEFSN [A12S] | 5.11
KNAKANLSSEFAN [R5A] | 0.583
KNAKRNLSSEGAN [F11G] | 0.721
KNIKRNLSSEFAN [A3I] | 4.93
KNAKRNNSSEFAN [L7N] | 0.63
KNCKRNLSSEFAN [A3C] | 5.38
KNAKRNLSSTFAN [E10T] | 1.82
KNAKRNLSSEFIN [A12I] | 4.72
KNAKRNLSSIFAN [E10I] | 3.6
KFAKRNLSSEFAN [N2F] | 4.21
KNAKRNLSSLFAN [E10L] | 3.13

Other studies, line by line
Substance | target | test | test system | conditions | scale | quantity | value
PhoQ, residues 284 288 289 292 302 303 SSCCRF | PhoP, residues 12 14 15 18 19 AWHSL (Escherichia coli, UniProt P23836) | Sort-seq, item: YFP reporter | E. coli | PhoQ-PhoP variant library, together with: 10 µM Mg2+ | relative to: high Mg2+ state, higher = stronger signaling | fold induction | 0.792
